Measured values collected from several papers.
Each numbered part is a random draw from the data of one study; scales do not carry over between parts. Several values in a cell are separate wells, animals, samples, runs or records.

Block 1 — cell line: HEK-293T-ACE2-TMPRSS2; technique: cell count; concentration: concentration not given
Structure (SMILES)	viability [%]
Cc1cc2nc3n(c2cc1C)C(O)C=C(C(C)(C)C)S3 (stereo not shown)	103
CCOC(=O)c1cc(C#N)c2ccccn2c1=O	65
Cc1n[nH]c(C)c1C(NC(=O)CSC12CC3CC(CC(C3)C1)C2)C(=O)O (stereo not shown)	89
N#Cc1ccc(C(=O)Nc2nc3c(s2)CN(Cc2ccccc2)CC3)cc1	75

Block 2 — cell line: HEK-293T; observed: pseudovirus infection; technique: FDA-approved drug library counter-screen; organism: VSV pseudotyped with VSV-G; concentration: 10 µM; time: 16 h; baseline: vehicle-treated
Structure (SMILES)	GFP-positive cells [%]
COc1cc2nc(N3CCN(C(=O)C4CCCO4)CC3)nc(N)c2cc1OC (stereo not shown)	99.4
CC(c1cc2ccccc2s1)N(O)C(N)=O (stereo not shown)	87.8
CCS(=O)(=O)CCn1c([N+](=O)[O-])cnc1C	86.2
Cn1c(=O)c2[nH]cnc2n(C)c1=O	121

Other studies, line by line
Compound	organism	technique	strain	matrix	concentration	quantity	value
CCCCCCCCCCCCCCCCOP(=O)([O-])OCC[N+](C)(C)C	Leishmania donovani		DD8 resistant line	promastigotes	16.66 µM	inhibition	1% and 2%
CNC(=O)c1ccc(-c2cnn3ccc(C(=O)N(C)c4ccc(Cl)c(C(=O)OC)c4)cc23)cc1	Cryptosporidium parvum	time-kill	nanoluciferase-expressing		9.15 nM	kill half-life	15.7 h

A few entries again (block 1):
Structure (SMILES)	viability [%]
Cc1n[nH]c(C)c1C(NC(=O)CSC12CC3CC(CC(C3)C1)C2)C(=O)O (stereo not shown)	89
